Measurements from different studies.
Numbered parts are unrelated; each lists some results of a single study.

Series 1
Target: RING finger protein unkempt homolog, zinc fingers 1-6, GST-SBP tag (UNK, Homo sapiens, UniProt Q9C0B0, residues 30-357)
Technique: RNA Bind-n-Seq
Molecule type: RNA
Sample: in vitro
Tested at: not given
Notes: RNA with constant flanks, human and mouse sites, ends assumed
Baseline: input RNA pool
Direction: higher = stronger binding
Shared flanks, not repeated: GGGAGUUCUACAGUCCGACGAUC … CAACAGAGGAUUGAGCAUCA
Construct (chain): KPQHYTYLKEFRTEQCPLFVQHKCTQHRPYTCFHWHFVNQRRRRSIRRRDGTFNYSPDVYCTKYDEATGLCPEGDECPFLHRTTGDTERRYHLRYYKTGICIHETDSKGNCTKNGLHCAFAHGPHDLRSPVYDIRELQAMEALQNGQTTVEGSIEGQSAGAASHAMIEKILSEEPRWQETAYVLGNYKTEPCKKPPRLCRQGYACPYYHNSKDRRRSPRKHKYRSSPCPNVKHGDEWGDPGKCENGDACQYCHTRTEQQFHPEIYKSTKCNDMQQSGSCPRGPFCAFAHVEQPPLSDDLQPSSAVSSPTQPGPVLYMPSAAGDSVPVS
| Sequence | bound/input enrichment [ratio] |
| --- | --- |
| UGGCUUUCUCCCAAGAGUCUCACCCGCUCCCAUCUGGCUGUCAUUGGACUGGACGCAUACCUGUGGUCUCACCAGCUCAGUUCUCAGAAGACAUGGCAACUAAAGAAGUCAAAGGAAGCC | 0.731 |
| GCAGACUGUAACCUGCUGCCCAAGCUCCACAUUGUCAAGGUGGUGGCCAAAAAAUACCGCAACUUUGAUAUUCCUAAAGGAAUGACAGGCAUCUGGAGGUACCUGACAAACGCCUACAGC | 0.148 |
| UACAUGUUUUCUCUUGUGCAUCAAUUUAAAUGUUACAACCAUGUAAACUACUUCUCUUGUUAGAUAGAUUUUCACCUAGACUUUUUUUCCCAAAUCAGAAAAAAAAUACACACUAAAUAA | 0.987 |
| AAAAAACGGAACUUCUCUAAUAGUAUUGAUCUUCCUAGAAAGAGGAUCUCUAACUUCACCAGUAAGAACAUGAAGGAGGUUAAGAGAUCUCCAAAACAGUUGGCUGCUUACAUAAGUAGA | 0.749 |
| CCUGACGGCCAGGUCAUCACUAUUGGCAAUGAGCGGUUCCGAUACCCUGAGGCUCUUUUCCAGCCUUCCUUCUUGGGUAUGGAAUCCUGUGGCAUCCACGAAACUACAUUCAAUUCCAUC | 0.111 |
| UACAUUUGUGUCUUCCAGAUCUGGAGAAGAACAGACAUAUUUAAAUCAUUCUUGUUGAACAGUUUUUGUAUGUACAGUAUUAUGGUACUUUUUUUUUUUUAGUAUGAGAACUUUUUUUGU | 1.62 |
| GUACAGAGUGUCAUUGACAGCCAAGGCAAAAACUGUGCCUCACUUCUGAGGGUCGAACCCUUUGUAUGUGCCCAGUGCCGCACAGAUUUCACCCCUCACUGGAAGCAAGAAAAGAAUGGU | 0.194 |
| AGUAUGAAUAUGAAGAGUAGAUUUGAUAUCAAAUCAAUGGCAGGGAACAUUAUUCCUGCUAUUGCUACUACUAAUGCAGUAAUUGCUGGGUUGAUAGUAUUGGAAGGAUUGAAGAUUUUA | 0.311 |
| GAUCUAAAAAUGGGAAUGAAGUUUGUCAGUGAUGAACAUUAUGAUGAAAACGAAGAUGACUUAGUUUCACAUGUAGAUGGUUCCGUAAUUUCCAGGAGGGAGUGGUAUGUUUAGCAACCA | 0.219 |
| AGUGAAAAUAUUUCUGCAGCUAUUCAAGCUAAUGGUGAGAUGGUUACAAAGCAACCAUUGAUUAGAAGUAUGCGGACAGUAAAAAGGGAAACUUUAAAGUUAAUAUCUGGUUGGGUGAGC | 0.438 |
| ACAUAUCUCAUUGAGCCAGAAGAAAAUGACACUACUCAAGAGGAUUUCCAUUUUCAUUCAGUUUACAAAUCCAGACUGUUUGAAUUUUCCUUGGAUGAUCUUCCAUCUGAAUUUCAGCAA | 0.0639 |

Series 2
Target: Fragile X messenger ribonucleoprotein 1, C-terminal low-complexity region (Fmr1, Mus musculus, UniProt P35922)
Technique: RNA Bind-n-Seq
Molecule type: RNA
Sample: in vitro
Tested at: 200 nM
Notes: whole 134-nt RNA, ends assumed
Together with: 150 mM LiCl
Baseline: input library
Direction: higher = stronger binding
Each molecule: 7-deaza-guanosine replaces G
Shared flanks, not repeated: GGGAGUUCUACAGUCCGACGAUC … UGGAAUUCUCGGGUGUCAAGG
| Sequence | log2 enrichment |
| --- | --- |
| CUCAAGUCCUGUGCUACACAUCGUAUGUACCGAAUCGGUGGUGGUUUUUUUGGAAAGUAUUAUGUUACGCCGUUCGGAUCUGCACUUCCA | 0.658 |
| UCCUGUGCUACACAUCGUAUGUACCGAAUCGGGUUUUUGGGUUUUUGGGAAAAAAAGGGAAAGUAUUAUGUUACGCCGUUCGGAUCUGCA | -0.823 |
| GUCCUGUGCUACACAUCGUAUGUACCGAAUCGGGAAAGGGAAAAAAAGGGAAAAAGGGAAAGUAUUAUGUUACGCCGUUCGGAUCUGCAC | 0.319 |
| CCUGUGCUACACAUCGUAUGUACCGAAUCGGGGCCCCCCGGGCCCCCCGGGCCCCCCGGGGAAAGUAUUAUGUUACGCCGUUCGGAUCUG | -1.75 |
| CAAGUCCUGUGCUACACAUCGUAUGUACCGAAUCGGGGCCCGGCCCGGGGCCCGGGAAAGUAUUAUGUUACGCCGUUCGGAUCUGCACUU | -1.89 |
| UUAAGGGAAUCUAUUGCUGAACACAAACCUCAUAUUGACAAACUACUAAAGAUAGGCCCACAACUAAAGGAAUUAAACCCUGAGGAAGGG | 0.277 |
| AGUCCUGUGCUACACAUCGUAUGUACCGAAUCGGGGUUUUUUUGGGGAGGGGAGGGGAAAGUAUUAUGUUACGCCGUUCGGAUCUGCACU | 0.157 |
| GUCCUGUGCUACACAUCGUAUGUACCGAAUCGGAAAAAGGAAAAAGGGGAAAAAGGGGAAAGUAUUAUGUUACGCCGUUCGGAUCUGCAC | 0.226 |
| GUCCUGUGCUACACAUCGUAUGUACCGAAUCGGGAAAAAAAGGGAAAAAAAGGGUGGGAAAGUAUUAUGUUACGCCGUUCGGAUCUGCAC | -1.44 |
| AGUCCUGUGCUACACAUCGUAUGUACCGAAUCGGGGUUUGGGGAAAGGGGUUUGGGGAAAGUAUUAUGUUACGCCGUUCGGAUCUGCACU | -1.3 |
| CAAGUCCUGUGCUACACAUCGUAUGUACCGAAUCGGGUUUGGGUUUUUGGGUGGGAAAGUAUUAUGUUACGCCGUUCGGAUCUGCACUUC | -1.35 |

Series 3
Target: RNA binding protein fox-1 homolog 2, RRM domain, GST-SBP tag (RBFOX2, Homo sapiens, UniProt O43251-10, residues 100-194)
Technique: RNA Bind-n-Seq
Molecule type: RNA
Sample: in vitro
Tested at: 365 nM
Notes: natural RNA segment, single round, ends assumed
Baseline: no-protein control
Direction: higher = stronger binding
Shared flanks, not repeated: GGGAGUUCUACAGUCCGACGAUC … UGGAAUUCUCGGGUGCCAA
Target sequence (chain): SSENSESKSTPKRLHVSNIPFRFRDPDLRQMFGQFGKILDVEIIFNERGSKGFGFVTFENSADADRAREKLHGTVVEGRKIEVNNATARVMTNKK
| Sequence | RBNS enrichment (R) |
| --- | --- |
| UAACCCCGGCUCUCCCUUUUCCACCCUACCCACCUAAAGAAGCACAGGCCCCACGAAGCAGGGGCCACACCCUUGUCCUGGGCUGCCUUCUGGCUGGCUUCUCUCUGCCA | 0.442 |
| GCAGCCGCAGACGGUCUGGACACCGCCGCAGGGGUGGGGUGAGGCGUCCCCCACCCUGCGGGACAGUGAACUGUGCAUAAGUCAGCGGAGGGCGACGACCCUCGCCGCGG | 0.319 |
| UUGCAGGCUGGGCGCGGUAGCUCAUGUCUGUAAUCCCAGCACUUUGGGAGGCCGAGGUGGGUGUAUCAGUUGAGGUCAGGAGUUGGAGACCAGUCAGCCAGUUAGUAGAA | 1.24 |
| GUUAUAGUCAGCUGAUAGAUUGAUGUGGCUGAAAACAGGACCGAGUGAACUGAUGCUCCCACCUGGGUGCCUCCAUGGCUUCCUUGAGCAACUGUCCCUAAGAUGCUUUC | 0.521 |
| UUAACACUGAUUGUCUAAGAGAUGAAAGUCCUCCAAAGAUGACACAGGAAAAAUACUACAAGUAAUUGUGGUGGAAAUGUCUGUGUUCCUUGGGAAUGCUGCGCUCUCUG | 0.163 |
| CCAUAUAUAUUAAUAGUCAACAAAUACUCAGAUAUUCUAAGGUCAAUGCCAUUAUUUGAUUAUACCAUUUUGAGGGUGAAUAUGGCUAGGCACUUUAGAUAAGCCUUUUU | 0.84 |
| UAAGAAAAUAUAUUUUUGGUAUAACUUUUAUGAGAAAAAUAAAAUAUAUUCUGGUCCAAACUUCUAAUUUGUUGUGGCAAAAAUUACUGAACUUUACAAAAUAGUUUUGU | 0.913 |
| CUGAGGGAAGAAACACCACGUCACAGUCACGAUGUCUGCCUUACUGGCUUCCCCAGGGAAGGAAAAAUGUGCUUCCUCCCUUUUUUCAAGGGUUCAUCUUUGCUUUAAUU | 0.423 |
| GACUGGGUAGCAGGUUCCUUCUGUUGUCCUGUGUGGUGUGUCUACUGUGAGGGUGGGCCCUGAGGAGACCUGUGGGCCACCUAUUGUCUAAUAAAGUGGGCAGUUGCCCC | 0.246 |
| AUGAUUAAAAAAAAUUCAAGCUCAAUACCCACAUAAAUUAUAACGUUUCUCAGGAAGUAGUCCCUUAACCAAAACGUCUCUGAGAAGUGAUGCUUAGGUAAUCUCUGGGA | 0.484 |
| GUUUUAUGGCCAGUGAUCCUCAAAUCCAUUGGCUGUUUGAAGACCCUGUCCUCACUUCUCCUUUUUUCAGGUGACUCUCUGCUUGGCUCUUUAUCUUACUCUUCAGCUAA | 0.482 |
| UUUCUUCAUGUUUCUUCUUUGUAUAUUUGGUGACUGUAUCGUCAUAGAUGUACAUAUUGUGUCGGUAGGGCUAUGAGGCAUGUUACAGGAAUGUAAUUUUCUCAGAAUUU | 0.372 |

Series 4
Target: PABPC1L2, full length, GST fusion (mouse, UniProt A0ABA7IW68)
Technique: RNAcompete
Molecule type: RNA
Sample: in vitro
Tested at: 20 nM
Notes: 7-mer, probes averaged, single round
Baseline: mean of 7-mers
Direction: higher = stronger binding
Residues (chain): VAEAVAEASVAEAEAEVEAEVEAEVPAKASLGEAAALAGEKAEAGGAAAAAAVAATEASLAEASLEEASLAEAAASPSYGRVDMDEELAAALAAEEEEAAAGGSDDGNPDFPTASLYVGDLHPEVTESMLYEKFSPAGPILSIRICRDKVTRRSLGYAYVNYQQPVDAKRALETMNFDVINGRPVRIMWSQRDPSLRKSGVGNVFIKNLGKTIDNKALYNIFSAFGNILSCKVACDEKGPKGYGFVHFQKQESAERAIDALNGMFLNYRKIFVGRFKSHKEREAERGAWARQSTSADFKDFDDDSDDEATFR
| Sequence | 7-mer Z-score |
| --- | --- |
| GUCCUCG | -0.38 |
| AUAAGGC | 0.129 |
| UGCAUUG | -0.253 |
| UUGGGAU | 0.0315 |
| ACCGAAG | -0.0645 |
| UCACUGG | -0.235 |
| ACCCUCA | -0.2 |
| UCGGUGU | -0.104 |
| GCCCGCC | -0.496 |
| CUCAGGU | -0.0863 |
| AAGCGAC | 0.428 |
| CUCCGUC | -0.418 |
| CCUUCAG | -0.374 |
| CGCCACU | -0.291 |
| CUCCCAC | -0.335 |
| ACAUCAU | -0.0156 |
| AUCACAA | 0.354 |
| UAGCAGG | -0.079 |
| UCCCAAC | -0.162 |
| CUCGCGA | -0.26 |
| AUUUGCU | -0.351 |
| CGUGAGC | -0.38 |
| UCCCCCU | -0.485 |
| UUCCUGA | -0.184 |
| AUGUUUG | -0.431 |

Excerpt of the above (series 2):
| Sequence | log2 enrichment |
| --- | --- |
| UUAAGGGAAUCUAUUGCUGAACACAAACCUCAUAUUGACAAACUACUAAAGAUAGGCCCACAACUAAAGGAAUUAAACCCUGAGGAAGGG | 0.277 |
| AGUCCUGUGCUACACAUCGUAUGUACCGAAUCGGGGUUUUUUUGGGGAGGGGAGGGGAAAGUAUUAUGUUACGCCGUUCGGAUCUGCACU | 0.157 |
| GUCCUGUGCUACACAUCGUAUGUACCGAAUCGGAAAAAGGAAAAAGGGGAAAAAGGGGAAAGUAUUAUGUUACGCCGUUCGGAUCUGCAC | 0.226 |
| GUCCUGUGCUACACAUCGUAUGUACCGAAUCGGGAAAAAAAGGGAAAAAAAGGGUGGGAAAGUAUUAUGUUACGCCGUUCGGAUCUGCAC | -1.44 |
| AGUCCUGUGCUACACAUCGUAUGUACCGAAUCGGGGUUUGGGGAAAGGGGUUUGGGGAAAGUAUUAUGUUACGCCGUUCGGAUCUGCACU | -1.3 |
| CAAGUCCUGUGCUACACAUCGUAUGUACCGAAUCGGGUUUGGGUUUUUGGGUGGGAAAGUAUUAUGUUACGCCGUUCGGAUCUGCACUUC | -1.35 |
